# Measured values of several laboratories.
# Parts stem from different laboratories: compare values within a part only.

# Block 1 — method: protein-binding microarray; form: double-stranded DNA, one strand shown; matrix: in vitro; concentration: 250 nM; setting: 60-bp whole probe; together with: salmon DNA 0.4 mg/ml; baseline: random background probes; direction: higher = stronger binding
# Target: Interferon regulatory factor 7, full length, phosphomimetic (IRF7, Homo sapiens, UniProt Q92985, residues 1-503, S101K/S471D/S472D/S475D/S476D/S477D/S483D/S484D/S487D)
# Target sequence (chain): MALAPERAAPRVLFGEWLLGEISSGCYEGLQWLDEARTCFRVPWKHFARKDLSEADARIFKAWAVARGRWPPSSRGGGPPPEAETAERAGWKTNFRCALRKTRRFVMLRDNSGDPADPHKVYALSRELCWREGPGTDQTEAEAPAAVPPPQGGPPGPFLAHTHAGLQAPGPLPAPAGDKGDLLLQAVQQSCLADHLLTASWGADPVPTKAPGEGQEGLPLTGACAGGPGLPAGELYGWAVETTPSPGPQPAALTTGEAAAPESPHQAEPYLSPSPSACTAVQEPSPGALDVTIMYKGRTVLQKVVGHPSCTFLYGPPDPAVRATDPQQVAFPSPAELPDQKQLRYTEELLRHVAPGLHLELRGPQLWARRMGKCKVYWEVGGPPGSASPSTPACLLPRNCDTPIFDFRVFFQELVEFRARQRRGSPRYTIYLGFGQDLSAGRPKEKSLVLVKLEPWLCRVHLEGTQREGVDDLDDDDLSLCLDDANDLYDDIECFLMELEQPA
Sequence,log fluorescence
GCCTAGCACACCCATTGAGATTTTCATTATGTGCTAGTCTTGATTCGCTTGACGCTGCTG,-0.0959 z-score
GCCTAGCACTCCAAATTGTCTCTGTCCCTGTGCTAGGTCTTGATTCGCTTGACGCTGCTG,-0.263 z-score
GCCTAGCACAACGGTCTCCTTTTCCTGACGTGCTAGGTCTTGATTCGCTTGACGCTGCTG,1.49 z-score
GCCTAGCACGATGATTTCGGGTTTCGAGACGTGCTAGTCTTGATTCGCTTGACGCTGCTG,4.71 z-score

# Block 2 — method: universal PBM; form: double-stranded DNA, one strand shown; matrix: in vitro; concentration: 600 nM; direction: higher = stronger binding
# Target: Sal-like protein 4, full length isoform A (SALL4, Homo sapiens, UniProt Q9UJQ4, residues 1-1053)
# Sequence of UniProt Q9UJQ4 (whole entry, looked up): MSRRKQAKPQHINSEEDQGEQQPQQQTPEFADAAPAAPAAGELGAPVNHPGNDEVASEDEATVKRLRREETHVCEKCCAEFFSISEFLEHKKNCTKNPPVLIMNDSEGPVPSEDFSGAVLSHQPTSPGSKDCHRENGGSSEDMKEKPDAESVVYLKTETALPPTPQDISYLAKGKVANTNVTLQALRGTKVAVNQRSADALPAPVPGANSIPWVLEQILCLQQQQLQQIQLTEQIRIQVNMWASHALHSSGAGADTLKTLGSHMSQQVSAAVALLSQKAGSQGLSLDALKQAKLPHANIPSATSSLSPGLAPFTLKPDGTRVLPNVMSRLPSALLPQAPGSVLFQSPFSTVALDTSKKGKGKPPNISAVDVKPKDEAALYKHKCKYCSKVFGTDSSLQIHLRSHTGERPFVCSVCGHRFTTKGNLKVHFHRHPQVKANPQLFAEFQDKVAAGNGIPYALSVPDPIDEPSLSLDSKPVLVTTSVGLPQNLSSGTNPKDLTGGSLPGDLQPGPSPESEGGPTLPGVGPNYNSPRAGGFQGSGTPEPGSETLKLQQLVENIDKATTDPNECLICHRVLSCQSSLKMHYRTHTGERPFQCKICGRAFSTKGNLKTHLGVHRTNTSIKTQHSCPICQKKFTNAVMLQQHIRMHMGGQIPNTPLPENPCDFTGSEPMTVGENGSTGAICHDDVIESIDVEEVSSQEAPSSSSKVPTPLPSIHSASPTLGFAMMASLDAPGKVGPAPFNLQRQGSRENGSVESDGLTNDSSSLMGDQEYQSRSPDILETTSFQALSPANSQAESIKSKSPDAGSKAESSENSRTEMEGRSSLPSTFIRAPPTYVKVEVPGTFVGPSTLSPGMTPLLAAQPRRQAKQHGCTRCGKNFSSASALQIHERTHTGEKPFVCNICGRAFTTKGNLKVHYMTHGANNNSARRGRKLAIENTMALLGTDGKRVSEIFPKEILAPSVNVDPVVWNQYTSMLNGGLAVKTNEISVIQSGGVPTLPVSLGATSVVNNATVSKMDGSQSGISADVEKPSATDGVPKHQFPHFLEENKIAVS
# Setting: 8-mer, flanks averaged, mean of replicates
Sequence,E-score
CGGTGTTA,-0.0585
ATATTTCA,0.383
ATAACTGA,0.255
AAAGGATC,-0.0158

# Block 3 — method: protein binding microarray; form: double-stranded DNA, one strand shown; matrix: in vitro; concentration: not given; baseline: not given; direction: higher = stronger binding
# Target: Histone acetyltransferase KAT6A, winged helix 2, GST fusion (KAT6A, Homo sapiens, UniProt Q92794, residues 85-181)
# Setting: 8-mer, flanks averaged, mean of 2 arrays, mostly near background
# Construct (chain): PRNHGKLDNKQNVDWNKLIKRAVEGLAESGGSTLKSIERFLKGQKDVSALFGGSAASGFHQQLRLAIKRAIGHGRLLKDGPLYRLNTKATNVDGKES
Sequence,E-score
GAGACTGA,0.128
CCTGGCCC,0.152
AAATGTAA,-0.0436
CATCCACA,0.0493

# Single results of other studies
Substance,target,test,test system,setting,scale,quantity,result
"PhoQ, residues 284 288 289 292 302 303 SSLVEF","PhoP, residues 12 14 15 18 19 LWHVM (Escherichia coli, UniProt P23836)","Sort-seq, refers to: YFP reporter",E. coli,"PhoQ-PhoP variant library, together with: 10 µM Mg2+","baseline: high Mg2+ state, higher = stronger signaling",fold induction,10

# Some of these lines once more (block 1):
Sequence,log fluorescence
GCCTAGCACACCCATTGAGATTTTCATTATGTGCTAGTCTTGATTCGCTTGACGCTGCTG,-0.0959 z-score
